Experimental data of several laboratories.
A part holds a random share of what one study measured. Positions count from the first letter of the parent shown.

Study 1
Target: RNA binding protein fox-1 homolog 2, RRM domain, GST-SBP tag (RBFOX2, Homo sapiens, UniProt O43251-10, residues 100-194)
Method: RNA Bind-n-Seq
Form: RNA
Sample: in vitro
Concentration: 365 nM
Setting: natural RNA segment, single round, ends assumed
Reference: no-protein control
Direction: higher = stronger binding
Residues (chain): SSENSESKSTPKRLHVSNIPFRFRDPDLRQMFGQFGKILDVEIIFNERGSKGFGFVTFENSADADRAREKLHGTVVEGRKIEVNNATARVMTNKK
Oligonucleotide	RBNS enrichment (R)
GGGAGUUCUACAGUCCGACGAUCUCUAGAGUUAGGAAUGAGUGUUUAUGGUGUUGCUUAUAGAACAACUCAGGUAAUCUCCAUUUCUGGUUUUAUAUUUUCUGUACAAACUGCCUGGGUUUUAUUUUUCUAAUUGGAAUUCUCGGGUGCCAA	0.659
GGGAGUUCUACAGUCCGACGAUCGGGUGUACGCUUGCCCUGGCUUAUGGAUUGGAAUGGGACUAAGGGGCAGCCCCAGCCCUGGGAACCUCUCCCACUACACCCACAAGACGCCACCAUGAAGCCUCAAAAGGUGGAAUUCUCGGGUGCCAA	0.346
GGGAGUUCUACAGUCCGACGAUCCCACUGGAUUUUGGGGUUCCCAGCACCCCAUGUGGAUUUUGGGGGGUCCCUUUUGUGUCUCCCCCGCCAUUCAAGGACUCCUCUCUUUCUUCACCAAGAAGCACAGAAUUUGGAAUUCUCGGGUGCCAA	0.242
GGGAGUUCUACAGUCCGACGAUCUGCAUGUCCCUGCUUCCAAAGCCUGACCUUCCAAAGCUUGCUUCCUUCCUCCUGGCUGCACAGACACCUCUGCUUGGCCACAGCUUUGCUCUUUGGUCCUCAGGCCACCAUGGAAUUCUCGGGUGCCAA	4.67
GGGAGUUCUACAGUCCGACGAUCUGAAGUUUGUUACGUGUAAGGGAAGCUGAAGUUCUUGUAUCUUUAAAGAGGAAAUCUUAUUUAACCCUUUGUGUCCUAGAUUGACUUACACACAUAGCCUAGAGCUCAGUUGGAAUUCUCGGGUGCCAA	0.353
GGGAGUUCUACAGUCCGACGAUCAUGGCUGUUCGAGAGAAAUCGGAAUAAAAGCCUAAACAGGAACAACUUCAUCACAGUGUUGAUGUUGGACACAUAGAUGGUGAUGGCAAAGGUUUAGAACACAUUAUUUUUGGAAUUCUCGGGUGCCAA	0.508
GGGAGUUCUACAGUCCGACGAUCCUGUAGGGUUCACUCUUCUGCAGUCACUUUAGCUUUCUGCAGAAGUCUAGAUUUUAAAUUAACUGUAGAAGGAAGUCAGACACCCACAGGUUUCUUCUAAUCAAGCUUCCUGGAAUUCUCGGGUGCCAA	0.602
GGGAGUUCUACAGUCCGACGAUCAUCCUGAACCUCGUACUUCACCUAAUGUUAGGGGCUUGCUCGUCUGCACAGGACUUAUUAACAAGUUAACUCCCAGCCGGCCACUGUGUGCCCUGUACCCUUGCCUCUUCUGGAAUUCUCGGGUGCCAA	0.347
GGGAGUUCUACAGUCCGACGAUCUGGUCCUAAAACAUAAAAUCUGAUGGACAAACAGAGGGUUGCUGGGGGGACAAGCGUGGGCACAAUUUCCCCACCAAGACACCCUGAUCUUCAGGCGGGUCUCAGGAGCUUGGAAUUCUCGGGUGCCAA	0.358
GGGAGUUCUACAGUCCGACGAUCACGUAGUCUUUUGUAUUUUCCCUGCCGAAGUGAAUUGUUGGAGAAUGUAAACCGCCUCCACGUGGCGGCAGACUUCCUAAGGCCCCAGCUCGCUGGCCUCGCGCUGGGCGUGGAAUUCUCGGGUGCCAA	0.775
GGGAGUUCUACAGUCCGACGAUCUAUCCACUGCCCUAAAGAUUUAGACAUCCAUCACAGACUCUGCAGUGGUGUUUCUACUCCAGUGAGGUACUUUCUACCAUGGUGUGCCUUUUGCUGUGAGUGACUUAACAUGGAAUUCUCGGGUGCCAA	0.334
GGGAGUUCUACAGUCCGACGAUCGAAUAUGUAUUCAUAUAAUCUGCCUACUUUUGAGUUCUCAUAUUAACAUUUAGAUAACAUAUGAAGUAUGGCCCCCUUGGAUCCUUGUUUUUAAGUUACUUUCGAUGUGUUGGAAUUCUCGGGUGCCAA	0.493

Study 2
Target: Interferon regulatory factor 3, full length, phosphomimetic (IRF3, Homo sapiens, UniProt Q14653, residues 1-427, S386D/S396D/S398D/S402D/T404D/S405D)
Method: protein-binding microarray
Form: double-stranded DNA, one strand shown
Sample: in vitro
Concentration: 2540 nM top
Setting: 60-bp whole probe
Added: salmon DNA 0.4 mg/ml
Reference: random background probes
Direction: higher = stronger binding
All sequences stand within: GCCTAGCAC … GTCTTGATTCGCTTGACGCTGCTG
Construct (chain): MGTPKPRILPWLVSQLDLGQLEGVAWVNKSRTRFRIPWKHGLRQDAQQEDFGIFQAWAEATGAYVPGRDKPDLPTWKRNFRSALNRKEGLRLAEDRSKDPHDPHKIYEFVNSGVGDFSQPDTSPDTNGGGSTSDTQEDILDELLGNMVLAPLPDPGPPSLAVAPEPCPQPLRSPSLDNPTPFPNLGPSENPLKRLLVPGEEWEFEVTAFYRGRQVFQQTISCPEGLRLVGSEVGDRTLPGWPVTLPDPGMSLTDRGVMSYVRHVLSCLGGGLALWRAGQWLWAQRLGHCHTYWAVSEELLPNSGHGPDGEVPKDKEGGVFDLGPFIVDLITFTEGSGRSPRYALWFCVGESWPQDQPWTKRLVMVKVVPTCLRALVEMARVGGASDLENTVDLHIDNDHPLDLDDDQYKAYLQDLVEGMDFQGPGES
Oligonucleotide	fitted relative affinity
GACGATATGAGTCTCGAGACGTGCTAG	-0.196 z-score
TTAGAACTGAGTCCCGATTAGTGCTAG	-0.186 z-score
TGTTGGTAATTTTGCTATTTGTGCTAG	-0.0433 z-score
GACGATTTCGAGTTTCGAGACGTGCTA	2.43 z-score
TTAGATATCGGGTTTCGTTTAGTGCTA	2.13 z-score
GAGGGTATCGGACTGGGGACGTGCTAG	0.206 z-score
AGGCCTCTGGGATCCCAGTCGGTGCTA	-0.38 z-score
TTAGGTTCCGATTTCGGTTAGTGCTAG	5.69 z-score
CCCTCCCTAATTCTGATTGGGTGCTAG	1.04 z-score
GACGGTATCGTGACTGGGGACGTGCTA	0.413 z-score
TCCATTATTGCTTCCTCTTTGTGCTAG	0.918 z-score
TTAGGTATCGGTCTCGGGTAGTGCTAG	3.86 z-score
TTAGGACTGCTTTTCCCTTAGTGCTAG	0.298 z-score
GACGAACTGGGGTTTCGAGGCGTGCTA	0.0592 z-score
TTAGGTATCCTACTGCTTTAGTGCTAG	2.4 z-score
GACGGTCTCGGTATCGAGACGTGCTAG	1.47 z-score
TCAATTTTTTTTCTAACACTGTGCTAG	0.74 z-score
TTTTTTCTACTTCTGTTTTTGTGCTAG	2.33 z-score
AAGACTTTGCTCTGTGCATAGGTGCTA	-0.542 z-score
TTAGGTATCCTACTGCTCTAGTGCTAG	2.51 z-score
GACGAACTGGGGACTGGAGACGTGCTA	-0.537 z-score
TAAGGTTTCCTACTGCTTTAGTGCTAG	4.74 z-score
GACGAACTGAGTATCGCGACGTGCTAG	-0.24 z-score
GACGGTTTTCTTTCCCTGACGTGCTAG	4.5 z-score
TGGTCTTTCTGTTTTCTCCAGTGCTAG	3.01 z-score

Study 3
Target: CCNE2, cyclin fold, Cln2 fusion (human)
Method: yeast growth competition, sequencing
Sample: yeast
Setting: weak parent motif
Reference: not given
Direction: higher = stronger binding
Parent: RRM2 docking peptide (human); SKTARRIFQEPTE
Substitution	normalised enrichment score
SKTARRIFAEPTE [Q9A]	0.821
SKTARAIFQEPTE [R6A]	-0.0896
SKTARRIFQEPTA [E13A]	0.396
AKTARRIFQEPTE [S1A]	0.458
SKTARRIFQEPAE [T12A]	0.396
SKTARRIAQEPTE [F8A]	0.371

Study 4
Target: ABI1, truncated, D143A, DHFR fusion (Arabidopsis thaliana)
Method: DHFR PCA, deep sequencing
Sample: yeast
Setting: methotrexate growth selection, single substitutions
Added: (+)-ABA 0.032 µM
Reference: wild-type fitted maximum
Direction: higher = stronger binding
Parent: PYL1, truncated, DHFR fusion (Arabidopsis thaliana); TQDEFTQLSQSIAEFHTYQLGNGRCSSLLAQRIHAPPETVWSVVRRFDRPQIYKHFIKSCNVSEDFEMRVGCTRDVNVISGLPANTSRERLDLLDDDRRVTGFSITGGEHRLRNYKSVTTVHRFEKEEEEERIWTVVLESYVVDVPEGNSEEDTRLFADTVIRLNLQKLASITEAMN
Substitution	relative binding score [%]
S26G	14.3
V145H	-9.64
N85G	21.3
L20N	17
A84L	20.5
H16N	-3.59
S150C	14.6
A170S	-4.98
F56R	0.594
T119N	4.76
V136Q	-5.73
Y53I	-3.19
F103E	2.9
E139P	3.02
R99S	3.69
T39V	49
H110T	50.7

Study 5
Target: UBE2N UBC core domain (UniProt P61088)
Method: yeast two-hybrid
Sample: yeast
Setting: mostly zero background
Reference: not given
Direction: higher = stronger interaction
B1: RNF149 RING domain (UniProt Q8NC42); chain EKGIDVDAENCAVCIENFKVKDIIRILPCKHIFHRICIDPWLLDHRTCPMCKLDVIKALGYW
B2: TRIM38 RING domain (UniProt O00635); chain STKKMMEEATCSICLSLMTNPVSINCGHSYCHLCITDFFKNPSQKQLRQETFCCPQCRAPFHMDSLRP
B3: TRIM35 RING domain (UniProt Q9UPQ4); chain PSRSFKEELLCAVCYDPFRDAVTLRCGHNFCRGCVSRCWEVQVSPTCPVCKDRASPADLRT
B4: UBE4A RING domain (UniProt Q14139); chain LQQQEEETYADACDEFLDPIMSTLMCDPVVLPSSRVTVDRSTIARHLLSDQTDPFNRSPLTMDQIRPNTELKEKIQRWLAERKQQKEQLE
B5: TRIM3 RING domain (UniProt O75382); chain VQPMDKQFLVCSICLDRYQCPKVLPCLHTFCERCLQNYIPAQSLTLSCPVCRQTSILPEQGV
B6: TRIM52 RING domain (UniProt Q96A61); chain PMQTLQEEAVCAICLDYFKDPVSISCGHNFCRGCVTQLWSKEDEEDQNEEEDEWEEEEDEEAV
B7: RNF32 RING domain (UniProt Q9H0A6); chain SLLQGDSVQPCPICKEEFELRPQVLLSCSHVFHKACLQAFEKFTNKKTCPLCRKNQYQTRVIH
B8: RNF4 RING domain (UniProt P78317); chain TGLRPSGTVSCPICMDGYSEIVQNGRLIVSTECGHVFCSQCLRDSLKNANTCPTCRKKINHKRYHP
B9: RNF14 RING domain (UniProt Q9UBS8); chain IKCFNSKLFLCSICFCEKLGSECMYFLECRHVYCKACLKDYFEIQIRDGQVQCLNCPEPKCPSVATPGQVK
B10: MSL2 RING domain (UniProt Q9HCI7); chain LLPYFRQSLSCCVCGHLLQDPIAPTNSTCQHYVCKTCKGKKMMMKPSCSWCKDYEQFEENKQ
B11: RNF112 RING domain (UniProt Q9ULX5); chain QPMAPRELPTCSICLERLRDPISLDCGHDFCIRCFSTHRLPGCEPPCCPECRKICKQKRGLR
B12: ANKIB1 RING domain (UniProt Q9P2G1); chain LSPGDLDTSLCDICMCSISVFEDPVDMPCGHDFCRGCWESFLNLKIQEGEAHNIFCPAYDCFQLVPVDIIE
B13: RFPL2 RING domain (UniProt O75678); chain MAALFQEASSCPVCSDYLEKPMSLECGCAVCLKCINSLQKEPHGEDLLCCCSSMVSRKNKIRR
B14: PEX2 RING domain (UniProt P28328); chain DNTLATSGKECALCGEWPTMPHTIGCEHIFCYFCAKSSFLFDVYFTCPKCGTEVHSLQPLK
Construct (chain): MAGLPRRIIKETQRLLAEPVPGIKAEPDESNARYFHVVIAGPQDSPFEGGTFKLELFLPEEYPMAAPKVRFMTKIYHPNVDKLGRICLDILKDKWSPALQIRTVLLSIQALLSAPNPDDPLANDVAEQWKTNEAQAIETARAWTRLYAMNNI
Molecule	lacZ reporter activity
QLQDEEDDSLCRICMDAVIDCVLLECGHMVTCTKCGKRMSECPICRQYVVRAVHVF (RNF34 RING domain (UniProt Q969K3))	0
B1 (RNF149 RING domain)	0
B2 (TRIM38 RING domain)	0
B3 (TRIM35 RING domain)	0
B4 (UBE4A RING domain)	0
B5 (TRIM3 RING domain)	0
B6 (TRIM52 RING domain)	0
B7 (RNF32 RING domain)	0
B8 (RNF4 RING domain)	0
B9 (RNF14 RING domain)	0
B10 (MSL2 RING domain)	0
KRQCSDVDDICSICQAEFQKPILLICQHIFCEECMTLWFNREKTCPLCRTVISDHINKW (RNFT1 RING domain (UniProt Q5M7Z0))	0
B11 (RNF112 RING domain)	0
B12 (ANKIB1 RING domain)	0
B13 (RFPL2 RING domain)	0
B14 (PEX2 RING domain)	0

Some of these lines once more (study 2):
Oligonucleotide	fitted relative affinity
GACGATATGAGTCTCGAGACGTGCTAG	-0.196 z-score
TTAGAACTGAGTCCCGATTAGTGCTAG	-0.186 z-score
TGTTGGTAATTTTGCTATTTGTGCTAG	-0.0433 z-score
GACGATTTCGAGTTTCGAGACGTGCTA	2.43 z-score
TTAGATATCGGGTTTCGTTTAGTGCTA	2.13 z-score
GAGGGTATCGGACTGGGGACGTGCTAG	0.206 z-score
AGGCCTCTGGGATCCCAGTCGGTGCTA	-0.38 z-score
TTAGGTTCCGATTTCGGTTAGTGCTAG	5.69 z-score
CCCTCCCTAATTCTGATTGGGTGCTAG	1.04 z-score
GACGGTATCGTGACTGGGGACGTGCTA	0.413 z-score
TCCATTATTGCTTCCTCTTTGTGCTAG	0.918 z-score
TTAGGTATCGGTCTCGGGTAGTGCTAG	3.86 z-score
